Measurements from different studies.
Every numbered part comes from another study and shows a few of its results, in no order. Changes are numbered by the printed parent chain.

Set 1 — target: CCNA2, cyclin fold, Cln2 fusion (human); technique: yeast growth competition, sequencing; matrix: yeast; notes: strong parent motif; relative to: not given; reading: higher = stronger binding; quantity: normalised enrichment score
Starting sequence: ASZ1 docking peptide (human); GFGFLLFICKLTF; partner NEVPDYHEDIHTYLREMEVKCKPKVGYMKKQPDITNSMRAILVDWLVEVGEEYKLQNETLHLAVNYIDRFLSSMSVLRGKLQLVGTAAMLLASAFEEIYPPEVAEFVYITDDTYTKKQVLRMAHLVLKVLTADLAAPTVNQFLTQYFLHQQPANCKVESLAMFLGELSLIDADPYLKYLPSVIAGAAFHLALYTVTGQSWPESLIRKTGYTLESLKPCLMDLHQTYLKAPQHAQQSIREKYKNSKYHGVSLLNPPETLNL
G3A: 1.54
K10A: 0.952
I8A: 0.847
C9A: 1.81
L11A: 1.53
T12A: 1.33

Set 2 — technique: protein-binding microarray; form: double-stranded DNA, one strand shown; matrix: in vitro; concentration: 2540 nM top; notes: 60-bp whole probe; added: salmon DNA 0.4 mg/ml; relative to: random background probes; reading: higher = stronger binding; quantity: fitted relative affinity; all sequences stand within: GCCTAGCAC … GTCTTGATTCGCTTGACGCTGCTG
Target: Interferon regulatory factor 3, full length, phosphomimetic (IRF3, Homo sapiens, UniProt Q14653, residues 1-427, S386D/S396D/S398D/S402D/T404D/S405D)
Target sequence (chain): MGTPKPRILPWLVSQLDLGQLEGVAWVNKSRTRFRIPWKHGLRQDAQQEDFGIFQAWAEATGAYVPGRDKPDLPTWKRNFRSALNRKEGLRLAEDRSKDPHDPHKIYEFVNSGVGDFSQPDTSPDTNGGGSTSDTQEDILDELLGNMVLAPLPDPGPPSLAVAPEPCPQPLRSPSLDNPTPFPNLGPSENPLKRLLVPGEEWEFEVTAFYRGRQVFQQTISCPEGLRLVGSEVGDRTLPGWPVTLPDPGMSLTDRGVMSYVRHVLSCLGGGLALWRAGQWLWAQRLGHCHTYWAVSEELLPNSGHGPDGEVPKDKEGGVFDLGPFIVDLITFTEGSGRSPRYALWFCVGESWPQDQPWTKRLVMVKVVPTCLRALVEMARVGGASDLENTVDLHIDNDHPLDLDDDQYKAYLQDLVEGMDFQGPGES
TTACATCTCAGACTGGATTAGTGCTAG: 0.507 z-score
TTAAATATCAGTTTCGATTAGTGCTAG: 5.5 z-score
TTAGAACTGAGTATCGATAAGTGCTAG: 0.0832 z-score
GACGGACTGGGTATCGGGTCGTGCTAG: 0.0175 z-score
GTCGGACTGCTTTTCCTGACGTGCTAG: 0.524 z-score
CTGATTTCCACTTTCTTAATGTGCTAG: 3.19 z-score
GACGATATCGGGTTTCGAGCCGTGCTA: 0.67 z-score
TTACGTTTCGACTTTCGGTTAGTGCTA: 3.52 z-score
TCAGGTCTCCTACTGCTTTAGTGCTAG: 1.46 z-score
CTTTGCTCATTTTTCAGGGAGTGCTAG: 1.66 z-score
GACGGTATCCTTATCCTTACGTGCTAG: 5.19 z-score
GACTGTCTCGGTTTCGGGACGTGCTAG: 3.77 z-score

Set 3 — target: OGT, full length, His-tagged (human); technique: phage display, sequencing; matrix: in vitro; concentration: 1 µg OGT; relative to: input library; reading: higher = stronger binding; quantity: fold enrichment; starting sequence: peptide; TAPFYPPAYQIQVFK
Notes: single substitutions, 15-mer displayed peptide, unchanged parent 19.6
TAPFYPPGYQIQVFK [A8G]: 1.06 fold
TAPFYPPAYEIQVFK [Q10E]: 1.25 fold
TAPFTPPAYQIQVFK [Y5T]: 0.987 fold
TAPFYPPAEQIQVFK [Y9E]: 0.474 fold
TAGFYPPAYQIQVFK [P3G]: 20.5 fold
TAPFYNPAYQIQVFK [P6N]: 1.16 fold
TAPFYPPASQIQVFK [Y9S]: 0.442 fold
TAPFYPPAYQIQVFE [K15E]: 2.62 fold

Other studies, line by line
PhoQ, residues 284 288 289 292 302 303 SSCLAV — fold induction (PhoP, residues 12 14 15 18 19 GHCSL (Escherichia coli, UniProt P23836); Sort-seq, item: YFP reporter; E. coli; PhoQ-PhoP variant library, added: 10 µM Mg2+; relative to: high Mg2+ state, higher = stronger signaling): 15.6

Excerpt of the above (set 3):
TAPFYPPAEQIQVFK [Y9E]: 0.474 fold
TAGFYPPAYQIQVFK [P3G]: 20.5 fold
TAPFYNPAYQIQVFK [P6N]: 1.16 fold
